# Measured values collected from several papers.
# Numbered parts are unrelated; each lists some results of a single study.

# Series 1
# Target: Histone acetyltransferase KAT6A, both winged helices, GST fusion (KAT6A, Homo sapiens, UniProt Q92794, residues 1-181)
# Method: protein binding microarray
# Form: double-stranded DNA, one strand shown
# Sample: in vitro
# Concentration: not given
# Setting: 8-mer, flanks averaged, mean of 2 arrays, mostly near background
# Reference: not given
# Reading: higher = stronger binding
# Residues (chain): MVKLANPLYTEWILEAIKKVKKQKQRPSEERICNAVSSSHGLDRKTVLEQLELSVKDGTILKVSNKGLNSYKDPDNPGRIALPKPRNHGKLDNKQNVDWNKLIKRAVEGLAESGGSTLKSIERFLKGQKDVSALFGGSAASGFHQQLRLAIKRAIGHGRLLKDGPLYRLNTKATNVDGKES
Sequence,E-score
TTCAAGAA,-0.124
GGAGATAC,0.0464
ATATGACC,-0.128
ACAACAAC,-0.15

# Series 2
# Target: Sox, HMG box (Pigoraptor chileana)
# Method: Spec-seq
# Form: double-stranded DNA, one strand shown
# Sample: in vitro
# Concentration: not given
# Setting: whole probe, mean of replicates
# Reference: not given
# Reading: lower = stronger binding
# Residues (chain): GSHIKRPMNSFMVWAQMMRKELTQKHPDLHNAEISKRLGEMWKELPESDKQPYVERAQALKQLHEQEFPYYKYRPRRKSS
Sequence,relative binding energy [ln ratio]
GAGTCGTCTCGTCAGCACCATCCTTCCGTAGAGCACTCAGGTC,0.544
GAGTCGTCTCGTCAGCACGTAAGTTCCGTAGAGCACTCAGGTC,0.835
GAGTCGTCTCGTCAGCACCATACGCCCGTAGAGCACTCAGGTC,0.334

# Series 3
# Target: Sal-like protein 4, full length isoform A (SALL4, Homo sapiens, UniProt Q9UJQ4, residues 1-1053)
# Sequence of UniProt Q9UJQ4 (whole entry, looked up): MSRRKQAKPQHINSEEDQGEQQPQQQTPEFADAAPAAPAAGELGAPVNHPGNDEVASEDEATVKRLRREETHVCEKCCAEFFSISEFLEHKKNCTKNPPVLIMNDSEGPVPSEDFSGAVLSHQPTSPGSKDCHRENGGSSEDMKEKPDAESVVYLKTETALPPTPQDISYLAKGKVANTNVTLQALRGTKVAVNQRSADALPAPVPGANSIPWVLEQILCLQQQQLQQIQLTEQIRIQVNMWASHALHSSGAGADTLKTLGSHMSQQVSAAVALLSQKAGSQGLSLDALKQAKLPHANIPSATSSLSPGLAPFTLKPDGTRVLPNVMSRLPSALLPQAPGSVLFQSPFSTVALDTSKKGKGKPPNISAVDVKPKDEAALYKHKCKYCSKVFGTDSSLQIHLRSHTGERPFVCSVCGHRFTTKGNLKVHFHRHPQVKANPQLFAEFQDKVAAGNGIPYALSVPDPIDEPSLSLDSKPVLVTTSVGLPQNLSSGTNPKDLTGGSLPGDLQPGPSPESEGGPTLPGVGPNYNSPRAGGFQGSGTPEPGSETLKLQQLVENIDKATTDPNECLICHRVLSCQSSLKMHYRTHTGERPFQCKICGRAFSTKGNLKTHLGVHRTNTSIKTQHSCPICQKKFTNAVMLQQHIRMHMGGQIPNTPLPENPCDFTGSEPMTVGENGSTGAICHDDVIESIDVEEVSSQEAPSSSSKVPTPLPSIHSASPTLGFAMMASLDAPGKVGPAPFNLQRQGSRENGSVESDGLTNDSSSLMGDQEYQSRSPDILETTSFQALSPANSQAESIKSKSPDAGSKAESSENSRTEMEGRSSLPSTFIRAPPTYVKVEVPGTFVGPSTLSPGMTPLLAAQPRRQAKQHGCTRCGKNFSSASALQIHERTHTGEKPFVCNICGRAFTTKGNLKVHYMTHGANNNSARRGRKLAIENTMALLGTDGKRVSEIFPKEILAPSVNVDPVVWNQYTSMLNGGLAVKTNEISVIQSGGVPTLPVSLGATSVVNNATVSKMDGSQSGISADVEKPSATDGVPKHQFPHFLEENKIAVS
# Method: universal PBM
# Form: double-stranded DNA, one strand shown
# Sample: in vitro
# Concentration: 600 nM
# Setting: 8-mer, flanks averaged, mean of replicates
# Reading: higher = stronger binding
Sequence,E-score
AGCCCGCG,-0.349
ACCAAAAT,0.278
ATTGTTCG,0.271

# Single results of other studies
Substance,target,test,system,setting,scale,endpoint,result
"PhoQ, residues 284 288 289 292 302 303 NLMGRA","PhoP, residues 12 14 15 18 19 SPWRL (Escherichia coli, UniProt P23836)","Sort-seq, refers to: YFP reporter",E. coli,"PhoQ-PhoP variant library, added: 10 µM Mg2+","reference: high Mg2+ state, higher = stronger signaling",fold induction,7.34

# Repeated from above (series 2):
Sequence,relative binding energy [ln ratio]
GAGTCGTCTCGTCAGCACGTAAGTTCCGTAGAGCACTCAGGTC,0.835
